Measurements collected from several papers.
Values joined by “and” are separate records of one study, mostly repeats; a detail may differ.
Target: Serine/threonine-protein kinase PLK2 (PLK2, Homo sapiens, UniProt Q9NYY3)

| observed | action | method | concentration | baseline | measurement | value | SMILES |
| --- | --- | --- | --- | --- | --- | --- | --- |
| cell-free assay |  | competition with immobilised ligand | 1 µM |  | remaining binding | 91% | Cc1ccc(-c2c(/C=C(\C#N)C(=O)NC(C)C)n(CCCO)c3ncnc(N)c23)cc1 |
|  | inhibitor |  | 1 µM | control | remaining activity | 77% | COc1cc(Nc2nc(C)cc(-c3cnn4nc(OC)ccc34)n2)cc(C(F)(F)F)c1 |
|  |  | KinomeScan | 0.1 µM | untreated | remaining binding | 67% | CNC1C[S+]2CC[S+]3CC[S+](C1)[Ru-4]321([N]=C=S)[n]2c3ccc(OC)cc3c3c4c(c5cc(F)c[n+]1c5c32)C(=O)NC4=O (centres unmarked) |
|  |  | KINOMEscan | 1 µM | DMSO control | remaining binding | 83% | C=CC(=O)N1CCc2ccc(-n3c(=O)ccc4cnc5ccc(-c6cnn(C)c6)cc5c43)cc21 |
| kinase activity | inhibitor |  | 1 µM | untreated control | remaining activity | 111% | COc1c(OCCCN2CCOCC2)ccc2c1N=C(NC(=O)c1cnc(N)nc1)N1CCN=C21 |
| cell-free assay |  | competition with immobilised ligand | 10 µM |  | remaining binding | 58% | CC(C)=CC1OC(C)(C)C2C=C3C(=O)C(Cl)=CC(O)C3C3C(O)C4OC4C(=O)C132 (centres unmarked) |
| enzyme activity | inhibitor |  | 1 µM |  | activity vs control | 105% | CNC(=O)C[C@H](Cc1ccc(C#N)cc1)NC(=O)c1cc(-c2ccc(CN[C@H](C)c3ccc(C)cc3)o2)ccc1Cl |
| cell-free assay | inhibitor |  | 1 µM |  | inhibition | 4.7% | C=CC(=O)N1Cc2nc(-c3cc(-c4cc(Cl)cnc4Cl)c(F)cc3F)n(-c3ccncn3)c2C1 |
| cell-free assay |  |  | 0.1 µM |  | remaining signal | 90% | Cc1cnc2nc1Nc1cccc(c1)COC/C=C/COCc1cc(ccc1OCCN1CCOCC1)N2 |
| kinase activity | inhibitor | ProQinase kinase profiling | 25 µM | control | remaining activity | 101% and 108% | COCC12C(=O)NC3C4(C(OC)CC1O)C1CC5(O)C(OC)C(O)C(OC(C)=O)(C1C5OC(=O)c1ccccc1)C3(O)C(OC)C24 (centres unmarked) |
| enzyme activity | inhibitor |  | 1 µM |  | inhibition | 2% | CN1CC[C@@H](COc2cnc(C#N)cc2-c2ccn3nc(NC(=O)C4CC4)cc3c2)C1 |
| binding |  | competition with immobilised ligand | 1 µM |  | remaining binding | 81% | CNC(=O)C1CCN(c2cc(C)c(F)cc2NC(=O)c2ccc(-c3cc(O)ccc3C)c(C)c2)CC1 |
| enzyme activity | inhibitor |  | 10 µM |  | inhibition | 3% | NC(=O)C[C@H]1CCc2sc3ncnc(O[C@H]4CC[C@H](N5CCOCC5)CC4)c3c21 |
| enzyme activity | inhibitor |  | 0.1 µM |  | inhibition | 5% | CN1CCN(Cc2ccc(-c3ccc(CO[C@H]4CCC[C@@H]4NC(=O)c4cc(-c5cnn(C)c5)cnc4N)cc3)cc2)CC1 |

Excerpt of the above:
| observed | action | method | concentration | baseline | measurement | value | SMILES |
| --- | --- | --- | --- | --- | --- | --- | --- |
|  | inhibitor |  | 1 µM | control | remaining activity | 77% | COc1cc(Nc2nc(C)cc(-c3cnn4nc(OC)ccc34)n2)cc(C(F)(F)F)c1 |
|  |  | KinomeScan | 0.1 µM | untreated | remaining binding | 67% | CNC1C[S+]2CC[S+]3CC[S+](C1)[Ru-4]321([N]=C=S)[n]2c3ccc(OC)cc3c3c4c(c5cc(F)c[n+]1c5c32)C(=O)NC4=O (centres unmarked) |
